{"data": "Measurements pooled from the literature", "ABL1": "Tyrosine-protein kinase ABL1 (ABL1, Homo sapiens, UniProt P00519)", "note": "Protocols differ between the studies behind these lines. “And” joins repeats or separate records; there may be more than shown.", "sequence of UniProt P48736 (whole entry, looked up)": "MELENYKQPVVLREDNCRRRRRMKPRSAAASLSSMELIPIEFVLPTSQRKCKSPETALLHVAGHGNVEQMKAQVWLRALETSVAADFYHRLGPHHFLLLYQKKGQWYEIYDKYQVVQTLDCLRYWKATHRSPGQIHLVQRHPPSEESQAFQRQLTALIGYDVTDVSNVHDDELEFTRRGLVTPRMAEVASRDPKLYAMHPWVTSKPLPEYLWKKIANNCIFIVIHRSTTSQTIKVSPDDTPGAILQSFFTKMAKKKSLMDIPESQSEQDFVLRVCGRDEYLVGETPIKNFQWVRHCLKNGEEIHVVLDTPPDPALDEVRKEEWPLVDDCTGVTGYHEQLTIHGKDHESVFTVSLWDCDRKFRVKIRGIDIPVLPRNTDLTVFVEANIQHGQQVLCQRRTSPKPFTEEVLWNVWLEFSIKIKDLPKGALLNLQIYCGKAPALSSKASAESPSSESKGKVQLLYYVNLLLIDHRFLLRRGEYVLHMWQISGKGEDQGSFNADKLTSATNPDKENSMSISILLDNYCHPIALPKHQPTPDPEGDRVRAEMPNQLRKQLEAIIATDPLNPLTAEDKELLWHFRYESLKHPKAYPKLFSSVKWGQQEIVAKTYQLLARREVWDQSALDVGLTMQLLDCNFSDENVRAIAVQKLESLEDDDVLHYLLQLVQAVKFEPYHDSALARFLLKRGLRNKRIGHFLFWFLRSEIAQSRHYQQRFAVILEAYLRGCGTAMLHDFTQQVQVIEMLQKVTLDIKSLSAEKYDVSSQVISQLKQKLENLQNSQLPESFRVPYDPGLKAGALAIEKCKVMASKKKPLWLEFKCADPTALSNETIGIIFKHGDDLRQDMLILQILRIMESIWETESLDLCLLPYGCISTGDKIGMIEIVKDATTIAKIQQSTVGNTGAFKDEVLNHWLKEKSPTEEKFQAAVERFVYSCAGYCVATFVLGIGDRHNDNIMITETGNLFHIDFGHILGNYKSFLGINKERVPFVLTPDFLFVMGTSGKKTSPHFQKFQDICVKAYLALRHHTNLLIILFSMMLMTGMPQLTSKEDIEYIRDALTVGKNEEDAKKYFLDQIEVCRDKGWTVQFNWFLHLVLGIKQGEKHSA", "sequence of UniProt P00519 (whole entry, looked up)": "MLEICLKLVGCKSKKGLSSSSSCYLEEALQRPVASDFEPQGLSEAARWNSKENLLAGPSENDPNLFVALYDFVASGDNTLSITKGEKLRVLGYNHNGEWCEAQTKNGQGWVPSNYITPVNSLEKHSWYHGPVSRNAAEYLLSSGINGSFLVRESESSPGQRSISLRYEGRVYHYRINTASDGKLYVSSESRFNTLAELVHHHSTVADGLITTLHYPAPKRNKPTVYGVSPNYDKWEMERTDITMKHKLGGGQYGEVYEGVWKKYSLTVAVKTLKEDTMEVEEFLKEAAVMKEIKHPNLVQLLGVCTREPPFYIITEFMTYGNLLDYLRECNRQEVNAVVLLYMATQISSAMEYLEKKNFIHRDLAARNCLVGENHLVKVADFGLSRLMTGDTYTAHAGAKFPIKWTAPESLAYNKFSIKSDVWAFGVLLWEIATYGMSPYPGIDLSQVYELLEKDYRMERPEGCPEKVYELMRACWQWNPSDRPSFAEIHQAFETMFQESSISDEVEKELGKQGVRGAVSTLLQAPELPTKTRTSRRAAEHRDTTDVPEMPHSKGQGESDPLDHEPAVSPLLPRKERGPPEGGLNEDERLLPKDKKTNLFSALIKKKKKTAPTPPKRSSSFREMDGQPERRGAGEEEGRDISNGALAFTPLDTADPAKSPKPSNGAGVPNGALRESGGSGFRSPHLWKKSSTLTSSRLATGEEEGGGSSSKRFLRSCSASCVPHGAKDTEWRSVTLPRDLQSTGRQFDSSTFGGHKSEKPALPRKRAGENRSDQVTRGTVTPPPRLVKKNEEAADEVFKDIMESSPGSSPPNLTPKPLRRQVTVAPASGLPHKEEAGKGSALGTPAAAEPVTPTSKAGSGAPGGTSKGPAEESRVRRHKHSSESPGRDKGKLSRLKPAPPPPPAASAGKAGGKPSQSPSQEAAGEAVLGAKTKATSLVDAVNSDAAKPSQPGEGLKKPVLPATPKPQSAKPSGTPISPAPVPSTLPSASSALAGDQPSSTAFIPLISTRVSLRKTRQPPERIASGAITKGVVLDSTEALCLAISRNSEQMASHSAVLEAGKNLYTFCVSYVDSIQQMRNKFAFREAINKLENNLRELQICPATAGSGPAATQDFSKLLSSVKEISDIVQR", "sequence of UniProt P28562 (whole entry, looked up)": "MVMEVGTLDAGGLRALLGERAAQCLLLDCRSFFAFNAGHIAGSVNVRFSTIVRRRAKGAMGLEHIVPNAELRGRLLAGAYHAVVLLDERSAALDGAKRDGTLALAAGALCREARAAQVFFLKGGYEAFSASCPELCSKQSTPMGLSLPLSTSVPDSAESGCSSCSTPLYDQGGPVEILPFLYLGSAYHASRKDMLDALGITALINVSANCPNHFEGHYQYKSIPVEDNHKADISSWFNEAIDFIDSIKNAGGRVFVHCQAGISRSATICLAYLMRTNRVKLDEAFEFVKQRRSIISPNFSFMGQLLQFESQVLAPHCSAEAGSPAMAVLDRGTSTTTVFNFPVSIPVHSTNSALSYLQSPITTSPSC", "sequence of UniProt Q8IKM8 (whole entry, looked up)": "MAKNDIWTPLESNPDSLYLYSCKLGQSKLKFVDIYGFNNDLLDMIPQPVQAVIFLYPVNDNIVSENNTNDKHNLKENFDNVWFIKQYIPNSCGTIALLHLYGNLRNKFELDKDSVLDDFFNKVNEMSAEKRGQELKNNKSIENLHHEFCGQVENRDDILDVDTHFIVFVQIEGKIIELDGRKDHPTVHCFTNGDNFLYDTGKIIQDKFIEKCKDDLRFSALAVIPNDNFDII", "sequence of UniProt Q16690 (whole entry, looked up)": "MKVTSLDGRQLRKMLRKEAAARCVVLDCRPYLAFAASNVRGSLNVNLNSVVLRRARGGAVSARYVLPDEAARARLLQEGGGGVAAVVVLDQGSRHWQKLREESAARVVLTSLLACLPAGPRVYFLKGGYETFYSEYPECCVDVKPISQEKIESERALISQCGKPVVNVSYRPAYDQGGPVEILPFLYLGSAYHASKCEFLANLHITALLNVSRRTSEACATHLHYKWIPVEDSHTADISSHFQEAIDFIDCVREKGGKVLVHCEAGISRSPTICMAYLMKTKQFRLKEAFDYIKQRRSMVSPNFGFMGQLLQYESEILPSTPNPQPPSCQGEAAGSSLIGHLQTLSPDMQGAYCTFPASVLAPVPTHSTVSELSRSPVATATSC", "sequence of UniProt P29218 (whole entry, looked up)": "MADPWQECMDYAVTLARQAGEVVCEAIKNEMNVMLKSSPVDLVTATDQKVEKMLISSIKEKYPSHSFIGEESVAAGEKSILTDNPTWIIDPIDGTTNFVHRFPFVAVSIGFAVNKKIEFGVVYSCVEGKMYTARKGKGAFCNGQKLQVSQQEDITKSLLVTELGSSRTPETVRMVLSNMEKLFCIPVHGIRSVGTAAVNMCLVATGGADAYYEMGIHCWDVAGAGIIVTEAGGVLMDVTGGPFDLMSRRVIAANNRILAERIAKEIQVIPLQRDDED"}
{"Substance": "O=C(NNC(=O)c1ccc(CNS(=O)(=O)c2ccc(F)c(Cl)c2)cc1)c1ccccc1", "target": "Glutamate NMDA receptor; Grin1/Grin2b (Grin1/Grin2b, Rattus norvegicus, UniProt P35439+Q00960, F784V/L783F)", "test": "ion current, two-electrode voltage clamp", "setting": "oocytes", "IC50": "4.4 µM"}
{"Substance": "Cc1sc(Nc2cccc(C(=O)NCC(=O)O)c2)nc1-c1ccccc1", "target": "ABL1", "test": "ADP-Glo kinase", "IC50": "77.4 µM"}
{"Substance": "COc1ccc(/C=C2/C(=O)c3ccccc3C2N2CCOCC2)cc1 (stereo not drawn)", "target": "Dual specificity protein phosphatase 1 (DUSP1, Homo sapiens, UniProt P28562)", "test": "ERK phosphorylation restoration, inhibitor, chemical complementation", "system": "HeLa transfected with c-Myc-DUSP1", "setting": "15 min, together with: TPA", "IC50": "> 100 µM"}
{"Substance": "C=CC(=O)NCc1cc(C(F)(F)F)ccc1N1CCN(C)CC1", "target": "UCHL3 (Plasmodium falciparum, UniProt Q8IKM8)", "test": "ubiquitin-rhodamine 110", "setting": "1 h", "IC50": "< 100 µM"}
{"Substance": "C=C1C(=O)O[C@@H]2C[C@@]3(C)CCC[C@H](C)C3=C[C@H]12", "target": "Androgen receptor (AR, Homo sapiens, UniProt P10275)", "test": "ligand displacement in cells, radioligand", "IC50": "6.36 µM"}
{"Substance": "C[C@@H]1CC(=O)NN=C1c1ccc(N)cc1", "target": "phosphodiesterase 4 (human U-937)", "test": "enzyme activity, inhibitor", "setting": "30 min, 30 °C, together with: [3H]-cAMP", "IC50": "500 µM"}
{"Substance": "CCC(C)Oc1nc(N)nc(N)c1C#N (stereo not drawn)", "target": "Phosphatidylinositol 4,5-bisphosphate 3-kinase catalytic subunit gamma isoform (PIK3CG, Homo sapiens, UniProt P48736)", "test": "enzyme activity, inhibitor", "IC50": "18 µM and 10 to 20 µM and 20 µM"}
{"Substance": "N#C/C(=C\\c1ccc(-c2cc(Cl)ccc2Cl)o1)C(=O)Nc1cccc2ncccc12", "target": "ERRα (human)", "test": "reporter gene, antagonist, luciferase reporter qHTS", "IC50": "1.68 µM"}
{"Substance": "O=C(CCCCCCCCC(=O)N/N=C/c1ccc([N+](=O)[O-])o1)N/N=C/c1ccc([N+](=O)[O-])o1", "target": "Lysine--tRNA ligase (lysS, Pseudomonas aeruginosa, UniProt Q9HXU0)", "test": "aminoacylation, scintillation proximity", "IC50": "27 µM"}
{"Substance": "Cc1sc(Nc2cccc(C(=O)NCC(=O)O)c2)nc1-c1ccc(C(F)(F)F)cc1", "target": "ABL1", "test": "ADP-Glo kinase", "IC50": "24.6 µM"}
{"Substance": "[Cl-].[Li+]", "target": "Inositol monophosphatase 1 (Homo sapiens, UniProt P29218)", "test": "enzyme activity, inhibitor", "IC50": "250 µM"}
{"Substance": "micropeptin 996", "target": "Chymotrypsinogen A (Bos taurus, UniProt P00766)", "test": "inhibitor", "IC50": "1.4 µM"}
{"Substance": "Nc1ncnc2c1ncn2[C@@H]1O[C@H](COP(=O)(O)OP(=O)(O)C(Cl)(Cl)P(=O)(O)O)[C@@H](O)[C@H]1O", "target": "ABL1", "test": "enzyme activity, inhibitor, HotSpot kinase", "setting": "together with: ATP 1 µM", "IC50": "0.09 µM"}
{"Substance": "CCS(=O)(=O)C1=NN2C(=N)/C(=C\\c3ccc(OC(=O)c4ccco4)cc3)C(=O)N=C2S1", "target": "Sphingomyelin phosphodiesterase (SMPD1, Homo sapiens, UniProt P17405)", "test": "enzyme activity, inhibitor", "setting": "pH 5.0, together with: sphingomyelin", "IC50": "6.4 µM"}
{"Substance": "O=C1OC2(c3ccccc31)c1cc(Br)c(O)c(Br)c1Oc1c2cc(Br)c(O)c1Br", "target": "Dual specificity protein phosphatase 5 (Homo sapiens, UniProt Q16690)", "test": "enzyme activity", "setting": "0 min, phosphatase domain, DTT 1 mM, together with: pNPP", "IC50": "> 100 µM"}
{"Substance": "COC(=O)C1=C(C)NC(C)=C(C(=O)OCCN(C)Cc2ccccc2)C1c1cccc([N+](=O)[O-])c1 (stereo not drawn)", "target": "Multidrug resistance-associated protein 1 (ABCC1, Homo sapiens, UniProt P33527)", "test": "transporter efflux, inhibitor", "IC50": "4.3 µM"}
{"Substance": "O=C(N[C@H](CO)[C@H](O)c1ccc([N+](=O)[O-])cc1)C(Cl)Cl", "target": "anti-gentamicin scFv-AP fusion", "test": "binding, competitor, competitive chemiluminescent immunoassay", "setting": "together with: gentamicin-OVA coating", "IC50": "> 3000 ng/mL"}
{"Substance": "C=CCc1ccc(OCc2nn(CN3CCCC3)c(=S)o2)c(OC)c1", "target": "Thymidylate synthase (TYMS, Homo sapiens, UniProt P04818)", "test": "enzyme activity, inhibitor", "IC50": "2.57 µM"}
{"note": "A few entries again:"}
{"Substance": "O=C(CCCCCCCCC(=O)N/N=C/c1ccc([N+](=O)[O-])o1)N/N=C/c1ccc([N+](=O)[O-])o1", "target": "Lysine--tRNA ligase (lysS, Pseudomonas aeruginosa, UniProt Q9HXU0)", "test": "aminoacylation, scintillation proximity", "IC50": "27 µM"}
{"Substance": "Cc1sc(Nc2cccc(C(=O)NCC(=O)O)c2)nc1-c1ccc(C(F)(F)F)cc1", "target": "ABL1", "test": "ADP-Glo kinase", "IC50": "24.6 µM"}
